Experimental data from different studies.
Protocols differ between the studies behind these lines. “And” joins repeats or separate records; there may be more than shown.
Partner: itself
Chain of UniProt P13590 (whole entry, looked up): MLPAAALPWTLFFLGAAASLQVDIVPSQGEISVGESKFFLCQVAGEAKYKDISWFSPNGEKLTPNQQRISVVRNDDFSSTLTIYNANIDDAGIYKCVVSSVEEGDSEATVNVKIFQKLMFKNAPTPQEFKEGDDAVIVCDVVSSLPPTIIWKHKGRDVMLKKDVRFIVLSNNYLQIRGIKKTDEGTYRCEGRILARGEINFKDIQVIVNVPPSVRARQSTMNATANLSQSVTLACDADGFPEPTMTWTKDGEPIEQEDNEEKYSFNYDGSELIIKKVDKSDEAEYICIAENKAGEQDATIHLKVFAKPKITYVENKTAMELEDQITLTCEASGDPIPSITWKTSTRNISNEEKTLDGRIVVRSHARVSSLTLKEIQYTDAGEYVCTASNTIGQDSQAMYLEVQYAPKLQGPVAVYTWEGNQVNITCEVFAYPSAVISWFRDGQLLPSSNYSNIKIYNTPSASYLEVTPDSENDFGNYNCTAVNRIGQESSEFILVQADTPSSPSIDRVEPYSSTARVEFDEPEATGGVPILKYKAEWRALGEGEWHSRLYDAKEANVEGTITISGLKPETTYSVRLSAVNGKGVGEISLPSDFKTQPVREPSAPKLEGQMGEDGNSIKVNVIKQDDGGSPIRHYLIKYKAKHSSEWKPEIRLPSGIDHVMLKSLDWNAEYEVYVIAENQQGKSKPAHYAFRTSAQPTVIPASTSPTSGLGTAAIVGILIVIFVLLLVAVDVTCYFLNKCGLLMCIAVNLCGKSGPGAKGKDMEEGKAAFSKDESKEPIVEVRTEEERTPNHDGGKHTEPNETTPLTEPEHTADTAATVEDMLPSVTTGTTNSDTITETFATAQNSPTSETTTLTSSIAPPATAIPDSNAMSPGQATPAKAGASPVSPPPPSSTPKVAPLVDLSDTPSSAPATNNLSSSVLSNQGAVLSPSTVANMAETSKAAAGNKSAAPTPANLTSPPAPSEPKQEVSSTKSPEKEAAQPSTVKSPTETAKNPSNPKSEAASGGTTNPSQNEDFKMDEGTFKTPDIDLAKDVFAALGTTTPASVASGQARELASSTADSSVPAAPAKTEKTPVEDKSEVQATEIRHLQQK

Molecule = vapC Y72A (Salmonella typhimurium); assay = lacZ reporter; how to read = baseline: wild type, higher = more transcription; endpoint = vapBC transcription; value = 7 fold
Molecule = MAPT R2R3 peptide, acetyl-lysine, three lysines; assay = ThT fluorescence aggregation; endpoint = t1/2max; value = 61.4 h
Molecule = GCN4 leucine zipper (Saccharomyces cerevisiae); assay = bacterial two-hybrid; conditions = 48 h, 30 °C; how to read = higher = stronger interaction; endpoint = β-galactosidase activity; value = 3540 Miller units
Molecule = BCL10 R58Q, Alexa488 label (Homo sapiens); assay = confocal fluorescence microscopy; conditions = R58Q, full length, MBP removed; endpoint = critical concentration of polymerization; value = 0.25 µmol/L
Molecule = Clip1 (Rattus norvegicus, UniProt Q9JK25); assay = scanning force microscopy; conditions = end-to-end association; endpoint = oligomer fraction; value = 20.5%
Molecule = GCN4 leucine zipper; assay = two-hybrid; conditions = early; endpoint = β-galactosidase activity; value = 360 Miller units
Molecule = NCAM1, polysialic acid removed (Gallus gallus, UniProt P13590); assay = apparent initial rate; test system = brain membrane vesicles; how to read = baseline: untreated vesicles, higher = faster aggregation; endpoint = aggregation rate; value = 3.3 fold
Molecule = MAPT R2R3 peptide, acetyl-lysine, second lysine; assay = self-assembly into fibrils, ThT fluorescence, negative-stain TEM; conditions = 500 µM, pH 7.4, acetylated peptide, TFA-disaggregated; endpoint = t1/2max of aggregation; value = 76.3 h
Molecule = DUT nuclear isoform (Homo sapiens); assay = non-reducing SDS-PAGE western blot; test system = total cell extracts; conditions = 18 h, not purified, added: hydrogen peroxide 0.1-0.5 mM; how to read = baseline: untreated cells, higher = more dimer; endpoint = dimer formation; value = 5 fold
Molecule = LL-37 mature (Homo sapiens); assay = native MS; test system = nanodiscs; endpoint = molecule per partner; value = 5 and 4
Molecule = FUS prion-like domain; assay = nanoparticle tracking analysis; how to read = baseline: full-length FUS, higher = greater decrease; endpoint = cluster abundance decrease; value = 60 fold
Molecule = dpo1 D231A/D318A (Saccharolobus solfataricus); assay = DNA synthesis rate; conditions = 60 °C, cooperative fit, kinetic; endpoint = Kd; value = 0.542 µM

A few entries again:
Molecule = BCL10 R58Q, Alexa488 label (Homo sapiens); assay = confocal fluorescence microscopy; conditions = R58Q, full length, MBP removed; endpoint = critical concentration of polymerization; value = 0.25 µmol/L
